Published values from different studies.
Lines come from different studies, so protocols differ.
Sequence of UniProt Q8NG66 (whole entry, looked up): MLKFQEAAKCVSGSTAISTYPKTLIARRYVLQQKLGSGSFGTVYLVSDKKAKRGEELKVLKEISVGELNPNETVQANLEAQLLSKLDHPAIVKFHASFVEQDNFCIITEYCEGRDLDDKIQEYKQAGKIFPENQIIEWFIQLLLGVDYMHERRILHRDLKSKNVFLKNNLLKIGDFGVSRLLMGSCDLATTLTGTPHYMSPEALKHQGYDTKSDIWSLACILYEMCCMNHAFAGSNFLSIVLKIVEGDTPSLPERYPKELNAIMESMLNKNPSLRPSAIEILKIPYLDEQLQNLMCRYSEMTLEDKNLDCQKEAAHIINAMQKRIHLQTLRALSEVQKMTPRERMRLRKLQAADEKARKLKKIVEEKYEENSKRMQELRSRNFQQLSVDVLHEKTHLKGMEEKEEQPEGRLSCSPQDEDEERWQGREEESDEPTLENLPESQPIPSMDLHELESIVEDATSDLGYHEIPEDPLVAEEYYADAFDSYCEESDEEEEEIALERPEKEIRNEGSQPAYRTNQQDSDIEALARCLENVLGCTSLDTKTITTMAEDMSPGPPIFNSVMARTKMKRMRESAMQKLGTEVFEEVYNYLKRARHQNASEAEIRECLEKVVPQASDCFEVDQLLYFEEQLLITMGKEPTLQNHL
Sequence of UniProt Q56UN5 (whole entry, looked up): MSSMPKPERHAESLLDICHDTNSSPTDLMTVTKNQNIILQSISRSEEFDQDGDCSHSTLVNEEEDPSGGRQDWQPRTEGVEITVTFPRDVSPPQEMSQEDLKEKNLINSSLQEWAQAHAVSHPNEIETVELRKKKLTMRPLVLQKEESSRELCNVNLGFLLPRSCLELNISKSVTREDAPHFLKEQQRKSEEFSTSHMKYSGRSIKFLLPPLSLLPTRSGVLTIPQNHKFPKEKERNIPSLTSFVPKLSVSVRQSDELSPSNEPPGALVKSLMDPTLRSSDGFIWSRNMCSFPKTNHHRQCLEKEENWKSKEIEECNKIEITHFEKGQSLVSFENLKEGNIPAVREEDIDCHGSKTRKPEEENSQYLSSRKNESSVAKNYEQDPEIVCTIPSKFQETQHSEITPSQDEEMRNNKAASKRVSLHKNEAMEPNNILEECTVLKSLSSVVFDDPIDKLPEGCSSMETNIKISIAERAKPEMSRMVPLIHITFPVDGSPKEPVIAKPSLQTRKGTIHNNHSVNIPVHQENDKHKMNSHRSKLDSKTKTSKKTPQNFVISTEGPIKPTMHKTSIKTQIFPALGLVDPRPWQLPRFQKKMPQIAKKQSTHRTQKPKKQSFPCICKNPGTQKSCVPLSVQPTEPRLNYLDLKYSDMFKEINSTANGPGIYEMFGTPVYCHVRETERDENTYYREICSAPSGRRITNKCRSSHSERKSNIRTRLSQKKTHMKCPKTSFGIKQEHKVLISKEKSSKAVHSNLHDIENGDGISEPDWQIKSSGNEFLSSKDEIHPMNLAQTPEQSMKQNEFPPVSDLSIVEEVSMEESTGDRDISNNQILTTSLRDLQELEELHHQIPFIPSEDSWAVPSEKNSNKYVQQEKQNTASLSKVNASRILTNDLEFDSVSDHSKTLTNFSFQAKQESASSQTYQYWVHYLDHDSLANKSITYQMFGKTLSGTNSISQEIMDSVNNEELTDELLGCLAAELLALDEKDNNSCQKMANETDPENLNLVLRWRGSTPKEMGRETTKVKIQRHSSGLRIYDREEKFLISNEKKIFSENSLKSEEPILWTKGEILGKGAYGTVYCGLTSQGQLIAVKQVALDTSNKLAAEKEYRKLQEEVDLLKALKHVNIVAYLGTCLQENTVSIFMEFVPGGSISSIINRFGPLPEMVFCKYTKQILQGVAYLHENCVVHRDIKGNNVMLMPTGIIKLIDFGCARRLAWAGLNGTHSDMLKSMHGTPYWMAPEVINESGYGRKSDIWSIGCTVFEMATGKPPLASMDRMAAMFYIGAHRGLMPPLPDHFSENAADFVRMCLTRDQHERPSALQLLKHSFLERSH
Sequence of UniProt P32246 (whole entry, looked up): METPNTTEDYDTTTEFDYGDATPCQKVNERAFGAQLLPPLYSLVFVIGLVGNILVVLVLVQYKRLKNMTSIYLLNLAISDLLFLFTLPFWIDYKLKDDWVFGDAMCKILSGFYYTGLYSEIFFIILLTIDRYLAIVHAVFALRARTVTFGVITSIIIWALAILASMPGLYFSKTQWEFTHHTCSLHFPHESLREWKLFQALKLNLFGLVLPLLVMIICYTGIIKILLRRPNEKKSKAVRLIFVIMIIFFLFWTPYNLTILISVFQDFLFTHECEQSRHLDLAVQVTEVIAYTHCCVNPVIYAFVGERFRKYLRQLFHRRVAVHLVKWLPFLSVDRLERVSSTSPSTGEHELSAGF
Sequence of UniProt Q86U86 (whole entry, unmodified, looked up): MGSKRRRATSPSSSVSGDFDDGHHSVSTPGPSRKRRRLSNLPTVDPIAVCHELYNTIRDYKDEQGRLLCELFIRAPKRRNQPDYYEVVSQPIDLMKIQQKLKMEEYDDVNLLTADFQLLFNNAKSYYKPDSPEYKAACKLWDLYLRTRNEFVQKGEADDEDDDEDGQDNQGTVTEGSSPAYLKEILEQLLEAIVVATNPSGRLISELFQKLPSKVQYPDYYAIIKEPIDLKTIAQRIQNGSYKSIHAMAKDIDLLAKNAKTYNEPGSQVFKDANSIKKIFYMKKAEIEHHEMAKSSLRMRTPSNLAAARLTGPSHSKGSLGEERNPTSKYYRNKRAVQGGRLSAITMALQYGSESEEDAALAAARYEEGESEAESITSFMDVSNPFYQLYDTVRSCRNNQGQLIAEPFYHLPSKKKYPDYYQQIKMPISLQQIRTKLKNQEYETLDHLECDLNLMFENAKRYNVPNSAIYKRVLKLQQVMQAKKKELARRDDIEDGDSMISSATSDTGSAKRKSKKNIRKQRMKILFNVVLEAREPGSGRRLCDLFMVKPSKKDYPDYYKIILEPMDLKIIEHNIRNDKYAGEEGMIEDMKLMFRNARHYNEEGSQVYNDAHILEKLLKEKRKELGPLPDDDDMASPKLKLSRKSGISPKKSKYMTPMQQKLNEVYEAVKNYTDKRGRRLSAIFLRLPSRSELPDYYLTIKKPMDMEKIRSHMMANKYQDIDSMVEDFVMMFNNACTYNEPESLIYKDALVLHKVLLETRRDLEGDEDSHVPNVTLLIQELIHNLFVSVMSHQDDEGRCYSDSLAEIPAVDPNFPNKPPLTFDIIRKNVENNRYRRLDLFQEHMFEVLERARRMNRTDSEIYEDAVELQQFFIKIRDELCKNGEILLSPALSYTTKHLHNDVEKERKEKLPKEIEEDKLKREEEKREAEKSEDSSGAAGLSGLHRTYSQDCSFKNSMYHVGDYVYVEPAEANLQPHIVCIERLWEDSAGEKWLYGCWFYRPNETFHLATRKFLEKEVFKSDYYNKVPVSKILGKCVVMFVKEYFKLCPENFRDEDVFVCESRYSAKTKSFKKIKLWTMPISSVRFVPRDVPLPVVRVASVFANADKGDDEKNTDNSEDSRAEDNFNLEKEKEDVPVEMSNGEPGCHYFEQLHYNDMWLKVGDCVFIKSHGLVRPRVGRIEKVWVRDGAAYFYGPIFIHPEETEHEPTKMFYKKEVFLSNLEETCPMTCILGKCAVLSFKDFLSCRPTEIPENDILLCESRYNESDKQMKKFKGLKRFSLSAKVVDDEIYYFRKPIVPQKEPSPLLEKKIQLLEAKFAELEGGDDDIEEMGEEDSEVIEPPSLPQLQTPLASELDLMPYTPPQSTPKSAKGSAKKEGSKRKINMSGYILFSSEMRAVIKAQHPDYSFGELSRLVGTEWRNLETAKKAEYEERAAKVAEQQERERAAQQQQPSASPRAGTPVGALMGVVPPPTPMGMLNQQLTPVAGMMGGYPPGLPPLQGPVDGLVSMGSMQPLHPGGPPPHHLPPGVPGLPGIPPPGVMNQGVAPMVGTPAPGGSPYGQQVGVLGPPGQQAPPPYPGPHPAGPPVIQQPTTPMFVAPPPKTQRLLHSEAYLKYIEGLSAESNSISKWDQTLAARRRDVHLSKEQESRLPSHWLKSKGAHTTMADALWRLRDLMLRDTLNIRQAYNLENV
Sequence of UniProt P43403 (whole entry, looked up): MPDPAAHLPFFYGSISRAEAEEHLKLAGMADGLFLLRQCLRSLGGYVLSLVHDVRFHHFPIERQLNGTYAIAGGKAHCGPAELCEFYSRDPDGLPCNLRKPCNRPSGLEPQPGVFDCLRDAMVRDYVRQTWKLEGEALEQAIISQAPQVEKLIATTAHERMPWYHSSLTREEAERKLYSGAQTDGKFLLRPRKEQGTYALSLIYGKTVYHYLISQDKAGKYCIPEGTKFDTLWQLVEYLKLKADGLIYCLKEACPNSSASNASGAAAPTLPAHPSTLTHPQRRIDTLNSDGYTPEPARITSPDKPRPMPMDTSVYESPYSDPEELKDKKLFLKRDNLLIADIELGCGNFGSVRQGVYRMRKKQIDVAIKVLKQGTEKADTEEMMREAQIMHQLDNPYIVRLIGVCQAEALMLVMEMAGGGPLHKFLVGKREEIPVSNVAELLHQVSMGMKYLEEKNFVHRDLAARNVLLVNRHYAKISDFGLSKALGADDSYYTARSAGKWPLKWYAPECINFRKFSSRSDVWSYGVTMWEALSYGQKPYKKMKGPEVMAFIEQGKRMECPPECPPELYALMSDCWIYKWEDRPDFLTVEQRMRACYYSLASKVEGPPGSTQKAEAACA

SMILES	tested on	assay	system	setting	quantity	result
CCN(CC)CCCC[C@H](NC(=O)[C@H](CC(C)C)NC(=O)[C@H](C)NC(=O)[C@H](Cc1ccccc1)NC(=O)c1ccc(C(C)(C)C)cc1)C(=O)N[C@@H](CO)C(=O)OC	Protein polybromo-1, BD1 (PBRM1, Homo sapiens, UniProt Q86U86)	thermal stability, DSF	–	25 µM	ΔTm	-0.03 °C
COc1ccc(Nc2nn3c(-c4ccccc4)ccnc3c2C(=O)Nc2ccc(Cl)cc2)cc1	Caco-2	cell growth or viability, MTT	–	25 µg/mL, 48 h, serum-free	viability	29.8%
COc1ncccc1-c1cnn2ccc(N3CCN(C(=O)OC(C)C)CC3)nc12	ERBB3 (Homo sapiens, UniProt P21860)	binding, competition with immobilised ligand	–	1 µM	remaining binding	100%
CC[C@H](C)[C@H](NC(=O)[C@H](Cc1ccccc1)NC(=O)[C@H](CCC(=O)O)NC(=O)[C@H](CCCNC(=N)N)NC(=O)[C@H](C)NC(=O)[C@H](C)NC(=O)[C@H](CCC(N)=O)NC(=O)[C@H](CCC(=O)O)NC(=O)[C@H](CCC(=O)O)NC(=O)[C@H](CC(C)C)NC(=O)[C@H](Cc1ccc(O)cc1)NC(=O)[C@H](CO)NC(=O)[C@H](CO)NC(=O)[C@@H](NC(=O)[C@H](CC(=O)O)NC(=O)[C@H](CO)NC(=O)[C@@H](NC(=O)[C@H](Cc1ccccc1)NC(=O)[C@@H](NC(=O)CNC(=O)[C@H](CCC(=O)O)NC(=O)[C@H](C)NC(=O)CCc1c[nH]cn1)[C@@H](C)O)[C@@H](C)O)C(C)C)C(=O)N[C@@H](C)C(=O)N[C@@H](Cc1c[nH]c2ccccc12)C(=O)N[C@@H](CC(C)C)C(=O)N[C@H](C(=O)N[C@@H](CCCNC(=N)N)C(=O)NCC(=O)N[C@@H](CCCNC(=N)N)C(=O)N[C@@H](CCCCNC(=O)COCCOCCNC(=O)COCCOCCNC(=O)CC[C@H](NC(=O)CCCCCCCCCCCCCCCCC(=O)O)C(=O)O)C(=O)NCC(=O)NCC(=O)N[C@@H](CO)C(=O)N[C@@H](CCCCNc1c(NCCCCCN(O)C(=O)CCC(=O)NCCCCCN(O)C(=O)CCC(=O)NCCCCCN(O)C(C)=O)c(=O)c1=O)C(=O)O)C(C)C	–	–	rat, plasma	subcutaneous, 20 nmol/kg	CL/F	0.234 mL/min/kg
N.N.[Cl][Pt][Cl]	KU812	cell growth or viability, ATP luminescence	–	10 µM, 72 h	inhibition	98%
Nc1ncc(-c2nc(N3CCOCC3)nc(N3CCOCC3)n2)c(C(F)F)n1	PIK3CA (Homo sapiens, UniProt P42336)	binding, competition with immobilised ligand	–	10 µM	remaining binding	0%
CC(C)CC(=O)OC[C@H]1O[C@@](C#N)(c2ccc3c(N)ncnn23)[C@H](O)[C@@H]1O	CCR1 (Homo sapiens, UniProt P32246)	cell-free assay	–	20 µM	inhibition	-10%
c1cncc([C@@H]2CCCN2)c1	ADRB2 (Homo sapiens, UniProt P07550)	ligand displacement	–	50 µM	inhibition	23.6%
C#Cc1ccc2c(c1)C(c1ccccn1)=NCc1c(-c3cnco3)ncn1-2.Cl	–	–	water	90 min, 37 °C	kinetic solubility	4900 µg/mL
Cc1nn(C)cc1-c1nc2c(N3CCN(Cc4ccc(Cl)cc4)CC3)c(Cl)cnc2[nH]1	MAP3K19 (Homo sapiens, UniProt Q56UN5)	binding, competition with immobilised ligand	–	1 µM	remaining binding	67%
C#Cc1n[nH]c2c(-c3cn([C@@H](C)c4ccccn4)c(=O)[nH]c3=O)cc(F)cc12	ZAP70 (Homo sapiens, UniProt P43403)	enzyme activity, inhibitor	–	0.1 µM	inhibition	-0.4%
[2H]c1c([2H])c([C@]2([2H])CCCN2C(=O)C(C)(C)Oc2ccc3cn[nH]c3c2)c([2H])c([2H])c1C([2H])([2H])[2H]	NEK11 (Homo sapiens, UniProt Q8NG66)	binding, competition with immobilised ligand	–	1 µM	remaining binding	90%

Repeated from above:
SMILES	tested on	assay	system	setting	quantity	result
CC(C)CC(=O)OC[C@H]1O[C@@](C#N)(c2ccc3c(N)ncnn23)[C@H](O)[C@@H]1O	CCR1 (Homo sapiens, UniProt P32246)	cell-free assay	–	20 µM	inhibition	-10%
